Experimental data collected from several papers.
Protocols differ between the studies behind these lines. “And” joins repeats or separate records; there may be more than shown. Numbers after ± are the reported error.
Spike glycoprotein: Spike glycoprotein (Severe acute respiratory syndrome coronavirus 2, UniProt P0DTC2)

For `CN(C)CCNC(=O)c1cn(Cc2ccc(F)cc2)c2ccccc12`, the EC50 was 2.78 ± 0.3 µM (Zaire ebolavirus; pseudovirus entry; A549).
`O=C1c2ccccc2-c2ccccc21` gave an EC50 of greater than 25 µM (Zaire ebolavirus; viral replication; HeLa; 24 h).
`COc1cc2c(OC3CCNCC3)c3c(c(-c4ccc5c(c4)OCO5)c2cc1OC)C(=O)OC3` gave an EC90 of 0.051 µM (Zaire ebolavirus; viral replication; HeLa).
`CNc1nc(N)ncc1-c1cn([C@@H]2O[C@H](CO)[C@@H](O)[C@@]2(C)F)cn1`: antiviral activity “inactive” (Zaire ebolavirus; concentration not given).
`CNC(=O)[C@@H](NC(=O)[C@H](CC(C)C)[C@H](O)C(=O)NO)C(C)(C)C` has an inhibition of 5% and 7.8% and 6% (prothrombin time; human platelet-poor plasma; 0.1 µM, with: GA venom).
The EC50 of `CCN(CC)CCCC(C)Nc1c2ccc(Cl)cc2nc2ccc(OC)cc12` (stereo not shown) is reported as 0.98 µM (Zaire ebolavirus; viral replication; HeLa; 24 h).
The Kd of `COc1ccc(/C=C/c2cc(O)cc(O)c2)cc1O` is reported as 58.6 µM (Spike glycoprotein; binding, biolayer interferometry).
For `Cn1cnc(Cn2c(=O)[nH]/c(=N\c3cc4cn(C)nc4cc3Cl)n(Cc3cc(F)c(F)cc3F)c2=O)n1`, “any TEAE, Severe severity” read 0% (human, normal renal function; oral, 375 mg).
With `O=C(O[C@@H]1Cc2c(O)cc(O)cc2O[C@@H]1c1cc(O)c(O)c(O)c1)c1cc(O)c(O)c(O)c1` the Kd was 11.5 µM (Spike glycoprotein; binding, BLI).
The IC50 of `COc1cc2c(OCCCN3CCN(C)C(=O)C3)c3c(c(-c4ccc5c(c4)OCO5)c2cc1OC)C(=O)OC3` is reported as less than 0.1 µM (Zaire ebolavirus; viral replication; HeLa).
The serum amylase of `CC[C@H](C)[C@H](NC(=O)[C@H](CC(C)C)NC(=O)[C@H](Cc1c[nH]c2ccccc12)NC(=O)[C@H](CCC(N)=O)NC(=O)[C@@H](NC(=O)[C@H](Cc1ccccc1)NC(=O)[C@H](C)NC(=O)[C@H](CCCCNC(=O)COCCOCCNC(=O)COCCOCCNC(=O)CC[C@H](NC(=O)CCCCCCCCCCCCCCCCCCC(=O)O)C(=O)O)NC(=O)[C@H](CCC(N)=O)NC(=O)[C@H](C)NC(=O)[C@@H](NC(=O)[C@H](CCCCN)NC(=O)[C@H](CC(=O)O)NC(=O)[C@H](CC(C)C)NC(=O)C(C)(C)NC(=O)[C@@H](NC(=O)[C@H](CO)NC(=O)[C@H](Cc1ccc(O)cc1)NC(=O)[C@H](CC(=O)O)NC(=O)[C@H](CO)NC(=O)[C@@H](NC(=O)[C@H](Cc1ccccc1)NC(=O)[C@@H](NC(=O)CNC(=O)[C@H](CCC(=O)O)NC(=O)C(C)(C)NC(=O)[C@@H](N)Cc1ccc(O)cc1)[C@@H](C)O)[C@@H](C)O)[C@@H](C)CC)[C@@H](C)CC)C(C)C)C(=O)N[C@@H](C)C(=O)NCC(=O)NCC(=O)N1CCC[C@H]1C(=O)N[C@@H](CO)C(=O)N[C@@H](CO)C(=O)NCC(=O)N[C@@H](C)C(=O)N1CCC[C@H]1C(=O)N1CCC[C@H]1C(=O)N1CCC[C@H]1C(=O)N[C@@H](CO)C(N)=O` is reported as 71.3 ± 8.5 U/L (healthy subjects, single ascending dose; 5.0 mg, day 29).
`Nc1ncnc2c([C@@H]3N[C@H](CO)[C@@H](O)[C@H]3O)c[nH]c12` gave an inhibition of 46.8% (Zaire ebolavirus; viral replication; HeLa, Kikwit; 12.5 µM).
`CCOC(=O)c1ccc(OC(=O)CCCCCN=C(N)N)cc1.CS(=O)(=O)O` gave an inhibition of 0.692% (Replicase polyprotein 1ab, main protease (rep, Severe acute respiratory syndrome coronavirus 2, UniProt P0DTD1); reporter gene (Gaussia luciferase), inhibitor; 20 µM).
The EC50 of `CCOC(=O)C1=C[C@@H](OC(CC)CC)[C@H](NC(C)=O)[C@@H](N)C1` is reported as greater than 25 µM (Zaire ebolavirus; viral replication; HeLa; 24 h).
`COc1c(C)c2c(c(O)c1C/C=C(\C)CCC(=O)O)C(=O)OC2` has an inhibition of roughly 90% (Zaire ebolavirus; minigenome RNA synthesis; HEK293T; 10 µM).
`CN1CCN(C(c2ccccc2)c2ccc(Cl)cc2)CC1` (stereo not shown) has an IC50 of 5.7 µM (Zaire ebolavirus; HeLa, Kikwit; 48 h).
For `O=C(N1CCC2(CC1)C[C@H](CN1CCCCS1(=O)=O)CCO2)C1(c2ccccc2)CCCC1`, the EC50 was greater than 30 µM (Zaire ebolavirus; viral replication; Vero).
For `CNCCOC(c1ccccc1)c1ccccc1`, the IC50 was 12.2 ± 0.5 µM (Zaire ebolavirus; viral entry; HIV pseudovirions with EBOV glycoprotein).
`CN(C)C1CCN(C(=O)c2cc3ccccc3n2Cc2ccncc2)CC1` has an EC50 of 16.2 ± 2 µM (Zaire ebolavirus; pseudovirus entry; A549).

Some of these lines once more:
`CNc1nc(N)ncc1-c1cn([C@@H]2O[C@H](CO)[C@@H](O)[C@@]2(C)F)cn1`: antiviral activity “inactive” (Zaire ebolavirus; concentration not given).
`COc1cc2c(OC3CCNCC3)c3c(c(-c4ccc5c(c4)OCO5)c2cc1OC)C(=O)OC3` gave an EC90 of 0.051 µM (Zaire ebolavirus; viral replication; HeLa).
